Measurements of several laboratories.
Lines come from different studies, so protocols differ.

| Molecule | tested on | assay | test system | setting | endpoint | value |
| --- | --- | --- | --- | --- | --- | --- |
| IVRFPNITNLCPFGE | human CD4 T cells | AIM | peptide |  | responding donors | 9% |
| Nc1ncnc2c([C@@H]3N[C@H](CO)[C@@H](O)[C@H]3O)c[nH]c12 | Marburg virus | viral replication, antibody staining | HeLa, Musoke | 6.3 µM, 1 h | infected cells | 2.4% |
| KPSKRSFIEDLLFNK | human CD4 T cells | AIM | peptide |  | responding donors | 17% |
| CS(=O)(=O)n1cc2c(n1)CN([C@H]1CO[C@H](c3cc(F)ccc3F)[C@@H](N)C1)C2 | Replicase polyprotein 1ab, main protease (rep, Severe acute respiratory syndrome coronavirus 2, UniProt P0DTD1) | reporter gene (Gaussia luciferase), inhibitor |  | 20 µM | inhibition | -0.317% |
| CC[C@H](C)[C@H](NC(=O)[C@H](CC(C)C)NC(=O)[C@H](Cc1c[nH]c2ccccc12)NC(=O)[C@H](CCC(N)=O)NC(=O)[C@@H](NC(=O)[C@H](Cc1ccccc1)NC(=O)[C@H](C)NC(=O)[C@H](CCCCNC(=O)COCCOCCNC(=O)COCCOCCNC(=O)CC[C@H](NC(=O)CCCCCCCCCCCCCCCCCCC(=O)O)C(=O)O)NC(=O)[C@H](CCC(N)=O)NC(=O)[C@H](C)NC(=O)[C@@H](NC(=O)[C@H](CCCCN)NC(=O)[C@H](CC(=O)O)NC(=O)[C@H](CC(C)C)NC(=O)C(C)(C)NC(=O)[C@@H](NC(=O)[C@H](CO)NC(=O)[C@H](Cc1ccc(O)cc1)NC(=O)[C@H](CC(=O)O)NC(=O)[C@H](CO)NC(=O)[C@@H](NC(=O)[C@H](Cc1ccccc1)NC(=O)[C@@H](NC(=O)CNC(=O)[C@H](CCC(=O)O)NC(=O)C(C)(C)NC(=O)[C@@H](N)Cc1ccc(O)cc1)[C@@H](C)O)[C@@H](C)O)[C@@H](C)CC)[C@@H](C)CC)C(C)C)C(=O)N[C@@H](C)C(=O)NCC(=O)NCC(=O)N1CCC[C@H]1C(=O)N[C@@H](CO)C(=O)N[C@@H](CO)C(=O)NCC(=O)N[C@@H](C)C(=O)N1CCC[C@H]1C(=O)N1CCC[C@H]1C(=O)N1CCC[C@H]1C(=O)N[C@@H](CO)C(N)=O |  |  | human, plasma | 4.5 mg, day 22, multiple ascending dose, geometric mean | CL/F | 0.727 mL/min |
